# Measurements of several laboratories.
# A part holds a random share of what one study measured.

# Block 1
# Target: Histone acetyltransferase KAT6A, winged helix 1, GST fusion (KAT6A, Homo sapiens, UniProt Q92794, residues 1-85)
# Method: protein binding microarray
# Molecule type: double-stranded DNA, one strand shown
# Medium: in vitro
# Concentration: not given
# Setting: 8-mer, flanks averaged, mean of 2 arrays, mostly near background
# Reference: not given
# Direction: higher = stronger binding
# Construct (chain): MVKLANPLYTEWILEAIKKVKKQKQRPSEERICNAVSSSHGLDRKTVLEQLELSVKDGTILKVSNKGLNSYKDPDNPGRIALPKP
Strand,E-score
GACTTCCA,-0.221
ATAAGATG,-0.101
CAGTCATG,0.0548
TCTGCAAA,-0.193
GTGCCTTA,-0.168
CATCCACC,0.0061
CGTCTATA,0.0852
CAAACCTG,-0.0501
CGGATCAG,0.0149
AAGACTCA,-0.246
AACAGCTA,-0.108
GTTCCGAA,0.0686
GGTGTCAC,0.014
ATGGCTTG,-0.0526
CTAGCAAA,-0.147
TAGTACCA,-0.0974
TATACCGA,0.0639
CCGAAAGA,-0.118
GTAATGTA,0.0697
CTCCATTA,-0.0467
CAGAAGAA,-0.144
CGATCAGA,-0.0115
AATTACGA,-0.102
TGAGCGCA,0.0876
CATGTTAA,-0.0384

# Block 2
# Target: Sal-like protein 4, full length isoform A (SALL4, Homo sapiens, UniProt Q9UJQ4, residues 1-1053)
# UniProt Q9UJQ4, sequence (whole entry, looked up): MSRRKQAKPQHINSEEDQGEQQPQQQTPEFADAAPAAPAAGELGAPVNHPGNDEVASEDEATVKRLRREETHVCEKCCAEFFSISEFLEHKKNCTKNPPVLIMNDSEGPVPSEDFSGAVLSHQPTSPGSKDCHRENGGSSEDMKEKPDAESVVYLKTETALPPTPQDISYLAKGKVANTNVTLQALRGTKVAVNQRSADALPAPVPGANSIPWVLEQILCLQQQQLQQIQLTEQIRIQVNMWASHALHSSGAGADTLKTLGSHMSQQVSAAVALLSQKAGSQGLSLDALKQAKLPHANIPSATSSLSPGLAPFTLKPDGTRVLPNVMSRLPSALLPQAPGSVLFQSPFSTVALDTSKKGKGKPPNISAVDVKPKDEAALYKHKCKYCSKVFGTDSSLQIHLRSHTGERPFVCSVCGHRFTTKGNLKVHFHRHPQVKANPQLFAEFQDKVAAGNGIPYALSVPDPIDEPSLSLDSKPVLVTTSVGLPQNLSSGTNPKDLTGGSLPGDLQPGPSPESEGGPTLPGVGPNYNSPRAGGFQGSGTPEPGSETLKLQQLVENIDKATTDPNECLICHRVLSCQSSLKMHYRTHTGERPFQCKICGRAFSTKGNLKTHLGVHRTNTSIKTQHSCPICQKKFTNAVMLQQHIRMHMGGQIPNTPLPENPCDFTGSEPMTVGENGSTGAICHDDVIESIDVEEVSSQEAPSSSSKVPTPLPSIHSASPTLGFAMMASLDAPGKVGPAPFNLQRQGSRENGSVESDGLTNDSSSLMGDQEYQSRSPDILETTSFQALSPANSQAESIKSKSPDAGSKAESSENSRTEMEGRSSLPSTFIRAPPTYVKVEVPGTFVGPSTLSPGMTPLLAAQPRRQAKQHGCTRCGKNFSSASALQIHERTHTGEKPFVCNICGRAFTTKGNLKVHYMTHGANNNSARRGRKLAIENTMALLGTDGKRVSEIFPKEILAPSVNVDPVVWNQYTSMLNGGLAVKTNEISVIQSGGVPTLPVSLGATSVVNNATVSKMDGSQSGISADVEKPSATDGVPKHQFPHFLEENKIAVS
# Method: universal PBM
# Molecule type: double-stranded DNA, one strand shown
# Medium: in vitro
# Concentration: 600 nM
# Setting: 8-mer, flanks averaged, mean of replicates
# Direction: higher = stronger binding
Strand,E-score
CCGAATAG,-0.0305
GCGGTCCA,-0.379
TGCCCCCA,-0.101
ATCGATTC,-0.00349
AGGCCAAA,-0.0976
CGCGAAGA,-0.139
CAGGGGCG,-0.389
GTCACCAA,0.0206
CCTCAACA,0.126
AGATCGTA,-0.0549
CCACACAC,-0.283
CACGGTAA,0.0172
ACAAGAGT,0.0893
GGGATTTA,0.0466
ATCCTGCA,0.107
AACTCCGT,-0.134
GGACTGCA,-0.115
GGGATACA,0.0316
AAACAGCC,-0.182
CAAACCTC,-0.186
CTGTGTTC,-0.0433
GCCGCCAA,-0.293
AGTAGGTG,0.0816
AGCGCTAT,0.131
AGTTAGGG,-0.17

# Block 3
# Target: RNA binding protein fox-1 homolog 2, RRM domain, GST-SBP tag (RBFOX2, Homo sapiens, UniProt O43251-10, residues 100-194)
# Method: RNA Bind-n-Seq
# Molecule type: RNA
# Medium: in vitro
# Concentration: 365 nM
# Setting: natural RNA segment, single round, ends assumed
# Reference: no-protein control
# Direction: higher = stronger binding
# Target sequence (chain): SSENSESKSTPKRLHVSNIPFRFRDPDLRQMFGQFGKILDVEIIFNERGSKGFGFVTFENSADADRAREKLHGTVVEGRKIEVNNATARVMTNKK
Strand,RBNS enrichment (R)
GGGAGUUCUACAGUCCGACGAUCCUUUCCAUCUCCAGGAGACUUUCAUGCAGCCUAAAGUACAGCCUGGACCACCCCUGGUGUGUAGCUAGUAAGAUUACCCUGAGCUGCAGCUGAGCCUGAGCCAAUGGGACUGGAAUUCUCGGGUGCCAA,0.408
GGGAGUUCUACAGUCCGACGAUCUCUCUGUUCAGUGUGUCAGCUAUUUUGUGAAGAUGCUUAGAUGUAUAGUUUUGAUAACCACAGUUUUAAAUCUUUUAUCUGUGCAUAAUAAAAAGAUAUAUAUCAGUUAUUGGAAUUCUCGGGUGCCAA,1.32
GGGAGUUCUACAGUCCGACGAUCCUCCUGUUCCCGCCUCAGUCAGGUGCAGACAAGUGGGCGGUGUCCAUUAAAGAGCAGACUCAGCGUUGCUCUUGGCUGUUCUUUCCUGCCGUGCAGGCUCUGGUCACCCCUGGAAUUCUCGGGUGCCAA,0.297
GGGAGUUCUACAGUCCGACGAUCUCAAAGGAGUUUGUGAAAAAAAAUCCAUGGUGAAAAUGAAACAAUGACAUGGUUAAUCUGGAACUUACGUUCUUAUACCAAUAAAAGGUACCUCAAUACAUGUUCUUUCAUGGAAUUCUCGGGUGCCAA,0.633
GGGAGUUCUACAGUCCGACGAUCGGGCUGUUGUGAGGAAAUAAAAUGAAAUGGAGUAUGUGAAAUUGCUUCAGCAACAGCAAAGUGCUACGUAAAUGUAAAGUGUUGUUUUUAGCUAAUAAUGGAUUUAAGUGUGGAAUUCUCGGGUGCCAA,2.91
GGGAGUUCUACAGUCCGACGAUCAAAAGCCUAGACAAACAUUUUGUCAGAACCUUGCGAAAUGCCAAGGUAUUACCAGUAAAUUGGUUGUAUAUACAAUAAAAUUGCACCCUUUUUUUAAACAAAACAAACUAUGGAAUUCUCGGGUGCCAA,0.741
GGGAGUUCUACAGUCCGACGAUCCCAAAAUCUUUGUAGUGUGCAGAGCGGUGGUUUGAGACUAAAUACAGGCUUAGAACUUGCAGAGUGUGUAUUCUUGGAUGGCUGAUGCAUCGACUUGCAUUCCCACUUAAUGGAAUUCUCGGGUGCCAA,1.13
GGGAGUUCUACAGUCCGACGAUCGAAGAGGAAAAGUCCAACUCCUUAGGGAGUCUGAGCCUGGCACGGGCUUGGGGAAAGAAGGCUGCAGGCAGCCUGCCGUCUAGGCAUCACUUUAUUUUUUAUCCUCCAGAUGGAAUUCUCGGGUGCCAA,0.359
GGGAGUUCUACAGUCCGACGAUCCAGUCAGGUGGGCGGUGUGUCUUUCCAGAAGGUCACGUGGAAAUGUCUCGGGACUUGGGUCCCGGAGUGCCCGUGAAGCGUGUUUUUGCUCCUGAGGUGCAUUUUCUCAUUGGAAUUCUCGGGUGCCAA,0.35
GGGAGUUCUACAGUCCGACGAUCCCAUAGCAGGUCUGGUUCCUGCUCCCCGCCUAGGACAGGAGCUGUCUGGAGCUCCACCUUUGCAAAGAAAGGAAAAACACAAAUUGCCCCCAGAUUGGCCCAGUGGCAUGUGGAAUUCUCGGGUGCCAA,1.44
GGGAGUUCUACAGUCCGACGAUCAGGCUGGACCACACGCUAACCUCCUGAGUGGUUCAGCUGCGUCUGGUCUGGUCAGGGUCCUGCUGCUUCCGUAACCUGGGUUUGCCUGUCCACCCCUGGCCUCUUCCGUAUGGAAUUCUCGGGUGCCAA,0.688
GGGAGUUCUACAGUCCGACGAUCUGAUGAUGUCACCAGUGCUGCCUCAGAUGAUACAGAGACAGGGAGUUUCAGGUGAACUUCUUCAGCAGAAUAAGGUGAUGCCACUCUGACCUUUGCUGAGCUCAGUGACUUGGAAUUCUCGGGUGCCAA,0.339

# Block 4
# Target: RING finger protein unkempt homolog, zinc fingers 1-6, GST-SBP tag (UNK, Homo sapiens, UniProt Q9C0B0, residues 30-357)
# UniProt Q9C0B0, sequence (30-357, looked up): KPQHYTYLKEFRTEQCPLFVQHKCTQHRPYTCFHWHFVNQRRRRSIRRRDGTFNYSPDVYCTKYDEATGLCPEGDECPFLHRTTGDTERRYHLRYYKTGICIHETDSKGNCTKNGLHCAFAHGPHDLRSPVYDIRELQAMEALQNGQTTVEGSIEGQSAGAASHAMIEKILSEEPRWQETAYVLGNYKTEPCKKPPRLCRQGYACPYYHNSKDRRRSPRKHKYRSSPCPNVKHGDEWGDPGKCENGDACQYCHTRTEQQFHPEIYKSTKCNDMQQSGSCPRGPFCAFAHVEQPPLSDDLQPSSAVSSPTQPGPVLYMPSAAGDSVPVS
# Method: RNA Bind-n-Seq
# Molecule type: RNA
# Medium: in vitro
# Concentration: not given
# Setting: RNA with constant flanks, human and mouse sites, ends assumed
# Reference: input RNA pool
# Direction: higher = stronger binding
Strand,bound/input enrichment [ratio]
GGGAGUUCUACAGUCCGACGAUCAAUGCUAAAGGUAUAUCGUAAGGGUAGUGUUUGUUUUUGAACGAUAAUUUAGAAGUUCUCAUAGAAAGCGUAUAACAUAGGUCUUCAGAAACUAUAAAAGAAUUUUCAUAUAGUAUUAAACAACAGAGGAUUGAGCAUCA,16.7
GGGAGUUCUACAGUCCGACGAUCUUCUUUUUUAUUAAACAGUGAUAAGAUUUUGUUACCAAGCAGCAUUUGAUAAAAGGUUCACUGGUUUUGGUAAACAAUAAACACUUUUAUAACAGCUAUUGUACAGUUGGCUGGUGCUCCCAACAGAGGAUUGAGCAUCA,0.366
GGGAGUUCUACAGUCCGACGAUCAUGGCAACAUCAGAGGCACUUAAAAUUUCAAGAGAGGUAGAUCCAGAUGGUCGCAGAACCCUAGCUGUAAUCACUAAACUUGAUCUCAUGGAUGCGGGUACUGAUGCCAUGGAUGUAUUGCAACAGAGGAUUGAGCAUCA,0.217
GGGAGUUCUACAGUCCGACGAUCCCAGUAGAGGGCAGCGAAAUUGGCUCAGAGACGCUGUCCAUUUCUUCUUCCCGCGACUCCACCCUGCGGAGAAAGGGCAAUAUCAUUCUAAUCCCUGAAAGAAGCAACAGCCCCGAAAACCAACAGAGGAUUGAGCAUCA,0.296
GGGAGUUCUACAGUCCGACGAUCAAUGCUGUGUAGACUCGGCUCUUGUAAAAGCAGUAGGAGCCUGAGAGUGCUCGUGUUUCCCCGAGUCCUCUGGCUGCCAAAGUCUCUGCUGCAAGGUCGAGGUUUGUUUUCUCAAAGUUUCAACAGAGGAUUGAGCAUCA,0.119
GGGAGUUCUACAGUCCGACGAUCAUCGCACAGGAUCUUCAACAACUGCAACAGCUUCAACAGCAGAAUCUCAACCUGCAACAGUUUGUGUUGGUGCAUCCAACCACCAAUUUGCAGCCAGCGCAGUUUAUCAUCUCACAGACGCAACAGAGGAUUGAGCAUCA,0.131
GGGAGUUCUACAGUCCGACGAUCCCUCGAGAACGGGACUAUUUAAAAACAGUCUUGCACAGGAUUUAUGGCAAGUUUCUCGGGCUUAGAGCAUUUAUCCGAAAACAAAUUAACAAUAUUUUUCUAAGGUUUGUUUAUGAAACACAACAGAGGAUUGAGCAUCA,1.4
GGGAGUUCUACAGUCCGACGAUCUAGCUCCGCAGAGGCGUGGGCUCGAUUCCUCAGGGCCACGUUACCACAGACCUGUUUGUUUCUUAUGCUGUUGUUCGUGGAGUCUCAUGGGAUUGUCUGGUUUCCCUUACAGGGCCCCCUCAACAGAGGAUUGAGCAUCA,0.208
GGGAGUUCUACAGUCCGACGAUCAAAAACAGGCUGCCAGCAAACAGCCUUCCUCAGGAGGGAGAUGUAGUGUUGACGACAGUGCAAUUCUGGAUUGCCAGUUCAGUGAAUUUUAUCAUACUCCUCCACCUGGUUUUGAAAAAACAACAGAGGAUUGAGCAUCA,0.208
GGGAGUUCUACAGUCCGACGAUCGGCUAUCUGGUAUCUGUAGAUGGCUACAUGAACAUGCAGCUUGCAAAUACAGAAGAAUACAUAGAUGGAGCUUUGUCUGGACAUCUGGGUGAAGUUUUAAUAAGGUGUAAUAAUGUCCUUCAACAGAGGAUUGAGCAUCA,0.164
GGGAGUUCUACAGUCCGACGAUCCUUGUAAGAUCUAAAUCUCCCAAAAUCACUUAUUUUACAAGAUAUGCUAAAUGCAUUUUGAUGGAGAAUUCUCCUGGUGCUGAUUUUGAGGUUUGGUUUUAUGAUGGGGUAAAAAUACACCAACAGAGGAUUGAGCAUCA,0.549

# Single results of other studies
Molecule,target,test,test system,setting,how to read,endpoint,value
"PhoQ, residues 284 288 289 292 302 303 NSMLDC","PhoP, residues 12 14 15 18 19 NIMAP (Escherichia coli, UniProt P23836)","Sort-seq, item: YFP reporter",E. coli,"PhoQ-PhoP variant library, together with: 10 µM Mg2+","reference: high Mg2+ state, higher = stronger signaling",fold induction,0.404

# Repeated from above (block 3):
Strand,RBNS enrichment (R)
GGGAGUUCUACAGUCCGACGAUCCUUUCCAUCUCCAGGAGACUUUCAUGCAGCCUAAAGUACAGCCUGGACCACCCCUGGUGUGUAGCUAGUAAGAUUACCCUGAGCUGCAGCUGAGCCUGAGCCAAUGGGACUGGAAUUCUCGGGUGCCAA,0.408
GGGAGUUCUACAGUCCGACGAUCUCUCUGUUCAGUGUGUCAGCUAUUUUGUGAAGAUGCUUAGAUGUAUAGUUUUGAUAACCACAGUUUUAAAUCUUUUAUCUGUGCAUAAUAAAAAGAUAUAUAUCAGUUAUUGGAAUUCUCGGGUGCCAA,1.32
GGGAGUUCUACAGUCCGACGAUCCUCCUGUUCCCGCCUCAGUCAGGUGCAGACAAGUGGGCGGUGUCCAUUAAAGAGCAGACUCAGCGUUGCUCUUGGCUGUUCUUUCCUGCCGUGCAGGCUCUGGUCACCCCUGGAAUUCUCGGGUGCCAA,0.297
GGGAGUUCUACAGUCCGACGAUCUCAAAGGAGUUUGUGAAAAAAAAUCCAUGGUGAAAAUGAAACAAUGACAUGGUUAAUCUGGAACUUACGUUCUUAUACCAAUAAAAGGUACCUCAAUACAUGUUCUUUCAUGGAAUUCUCGGGUGCCAA,0.633
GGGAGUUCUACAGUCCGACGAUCGGGCUGUUGUGAGGAAAUAAAAUGAAAUGGAGUAUGUGAAAUUGCUUCAGCAACAGCAAAGUGCUACGUAAAUGUAAAGUGUUGUUUUUAGCUAAUAAUGGAUUUAAGUGUGGAAUUCUCGGGUGCCAA,2.91
